Assay results collected from several papers.
Numbered parts are unrelated; each lists some results of a single study.
UniProt Q9UBS0, sequence (whole entry, looked up): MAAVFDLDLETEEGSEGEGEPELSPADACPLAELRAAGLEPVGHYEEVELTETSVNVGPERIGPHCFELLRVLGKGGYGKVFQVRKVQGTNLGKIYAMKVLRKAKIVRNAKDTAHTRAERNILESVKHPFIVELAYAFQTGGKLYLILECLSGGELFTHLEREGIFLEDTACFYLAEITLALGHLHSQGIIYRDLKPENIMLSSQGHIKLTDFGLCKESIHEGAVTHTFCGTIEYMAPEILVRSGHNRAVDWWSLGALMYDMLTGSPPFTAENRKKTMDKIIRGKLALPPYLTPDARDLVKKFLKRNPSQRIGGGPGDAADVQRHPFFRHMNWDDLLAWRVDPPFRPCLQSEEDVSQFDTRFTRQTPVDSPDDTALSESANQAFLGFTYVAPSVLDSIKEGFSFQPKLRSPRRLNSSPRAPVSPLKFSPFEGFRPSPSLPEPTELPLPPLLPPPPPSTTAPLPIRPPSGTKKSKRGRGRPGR
UniProt Q14012, sequence (whole entry, looked up): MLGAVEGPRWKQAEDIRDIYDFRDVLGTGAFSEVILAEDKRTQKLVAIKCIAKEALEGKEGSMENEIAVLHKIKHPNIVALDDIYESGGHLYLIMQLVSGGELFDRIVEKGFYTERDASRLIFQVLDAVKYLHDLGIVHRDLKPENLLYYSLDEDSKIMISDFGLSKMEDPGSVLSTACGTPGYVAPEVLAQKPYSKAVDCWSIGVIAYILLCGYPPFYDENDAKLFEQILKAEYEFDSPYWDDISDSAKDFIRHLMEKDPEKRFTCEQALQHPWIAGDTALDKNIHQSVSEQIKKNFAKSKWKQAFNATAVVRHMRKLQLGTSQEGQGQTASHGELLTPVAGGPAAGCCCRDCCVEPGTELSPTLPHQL
UniProt Q04759, sequence (whole entry, looked up): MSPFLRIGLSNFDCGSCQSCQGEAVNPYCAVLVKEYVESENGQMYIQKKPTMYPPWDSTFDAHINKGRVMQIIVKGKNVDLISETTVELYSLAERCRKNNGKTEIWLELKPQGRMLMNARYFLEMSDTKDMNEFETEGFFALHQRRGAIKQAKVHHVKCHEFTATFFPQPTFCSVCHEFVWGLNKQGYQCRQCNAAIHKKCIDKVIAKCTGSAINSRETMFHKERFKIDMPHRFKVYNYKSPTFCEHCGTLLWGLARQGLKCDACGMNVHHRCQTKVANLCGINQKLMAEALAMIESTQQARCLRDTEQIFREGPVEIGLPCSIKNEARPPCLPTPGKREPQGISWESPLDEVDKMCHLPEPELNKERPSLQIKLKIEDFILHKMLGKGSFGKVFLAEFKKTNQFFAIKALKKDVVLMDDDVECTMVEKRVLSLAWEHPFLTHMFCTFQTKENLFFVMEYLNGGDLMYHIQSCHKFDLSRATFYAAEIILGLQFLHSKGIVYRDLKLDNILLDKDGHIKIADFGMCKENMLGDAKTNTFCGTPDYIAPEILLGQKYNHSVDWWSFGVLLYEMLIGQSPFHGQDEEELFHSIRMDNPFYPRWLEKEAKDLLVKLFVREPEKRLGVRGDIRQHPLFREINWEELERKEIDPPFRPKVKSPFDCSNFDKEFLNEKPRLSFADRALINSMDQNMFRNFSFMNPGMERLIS
UniProt P29317, sequence (whole entry, looked up): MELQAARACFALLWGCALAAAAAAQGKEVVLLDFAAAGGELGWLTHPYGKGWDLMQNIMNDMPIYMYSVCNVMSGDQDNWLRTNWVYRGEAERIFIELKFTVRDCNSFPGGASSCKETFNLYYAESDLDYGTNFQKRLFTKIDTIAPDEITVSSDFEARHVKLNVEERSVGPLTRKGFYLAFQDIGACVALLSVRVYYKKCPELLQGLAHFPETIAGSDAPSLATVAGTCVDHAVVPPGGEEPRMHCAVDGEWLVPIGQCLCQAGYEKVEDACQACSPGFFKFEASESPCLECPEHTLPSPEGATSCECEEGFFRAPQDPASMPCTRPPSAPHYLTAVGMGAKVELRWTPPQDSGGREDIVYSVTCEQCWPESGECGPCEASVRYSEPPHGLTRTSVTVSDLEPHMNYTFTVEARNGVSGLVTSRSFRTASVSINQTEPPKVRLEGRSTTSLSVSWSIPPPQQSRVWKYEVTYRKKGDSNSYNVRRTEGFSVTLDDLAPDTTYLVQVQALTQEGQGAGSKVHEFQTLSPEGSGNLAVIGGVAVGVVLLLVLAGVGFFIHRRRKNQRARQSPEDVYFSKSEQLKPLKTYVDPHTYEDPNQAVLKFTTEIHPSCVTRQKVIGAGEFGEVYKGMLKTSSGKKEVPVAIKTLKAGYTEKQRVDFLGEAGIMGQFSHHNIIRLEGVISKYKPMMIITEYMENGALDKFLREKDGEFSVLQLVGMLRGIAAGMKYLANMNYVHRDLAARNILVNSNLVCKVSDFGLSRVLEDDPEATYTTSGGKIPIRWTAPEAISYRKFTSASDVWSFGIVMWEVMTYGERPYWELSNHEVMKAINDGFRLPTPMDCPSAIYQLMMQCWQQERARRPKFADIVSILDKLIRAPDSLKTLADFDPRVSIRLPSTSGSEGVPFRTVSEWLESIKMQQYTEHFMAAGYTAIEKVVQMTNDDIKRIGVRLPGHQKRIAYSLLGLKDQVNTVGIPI
UniProt Q06187, sequence (whole entry, looked up): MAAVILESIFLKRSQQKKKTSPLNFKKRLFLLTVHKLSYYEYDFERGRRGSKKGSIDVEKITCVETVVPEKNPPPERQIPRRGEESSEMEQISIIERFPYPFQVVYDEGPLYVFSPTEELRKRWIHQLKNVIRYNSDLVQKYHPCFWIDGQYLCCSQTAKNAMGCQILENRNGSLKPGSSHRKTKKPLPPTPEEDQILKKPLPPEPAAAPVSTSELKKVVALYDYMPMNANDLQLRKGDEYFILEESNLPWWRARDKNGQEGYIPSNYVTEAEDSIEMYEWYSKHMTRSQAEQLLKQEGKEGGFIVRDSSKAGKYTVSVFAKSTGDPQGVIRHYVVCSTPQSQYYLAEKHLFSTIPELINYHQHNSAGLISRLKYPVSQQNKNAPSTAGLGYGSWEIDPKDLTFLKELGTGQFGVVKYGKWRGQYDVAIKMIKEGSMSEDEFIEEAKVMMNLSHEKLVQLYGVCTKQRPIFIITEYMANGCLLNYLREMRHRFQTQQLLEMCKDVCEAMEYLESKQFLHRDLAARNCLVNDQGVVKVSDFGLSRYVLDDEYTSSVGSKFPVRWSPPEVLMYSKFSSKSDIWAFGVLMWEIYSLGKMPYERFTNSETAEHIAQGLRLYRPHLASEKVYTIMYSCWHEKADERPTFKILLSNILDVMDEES
UniProt Q96SB4, sequence (whole entry, looked up): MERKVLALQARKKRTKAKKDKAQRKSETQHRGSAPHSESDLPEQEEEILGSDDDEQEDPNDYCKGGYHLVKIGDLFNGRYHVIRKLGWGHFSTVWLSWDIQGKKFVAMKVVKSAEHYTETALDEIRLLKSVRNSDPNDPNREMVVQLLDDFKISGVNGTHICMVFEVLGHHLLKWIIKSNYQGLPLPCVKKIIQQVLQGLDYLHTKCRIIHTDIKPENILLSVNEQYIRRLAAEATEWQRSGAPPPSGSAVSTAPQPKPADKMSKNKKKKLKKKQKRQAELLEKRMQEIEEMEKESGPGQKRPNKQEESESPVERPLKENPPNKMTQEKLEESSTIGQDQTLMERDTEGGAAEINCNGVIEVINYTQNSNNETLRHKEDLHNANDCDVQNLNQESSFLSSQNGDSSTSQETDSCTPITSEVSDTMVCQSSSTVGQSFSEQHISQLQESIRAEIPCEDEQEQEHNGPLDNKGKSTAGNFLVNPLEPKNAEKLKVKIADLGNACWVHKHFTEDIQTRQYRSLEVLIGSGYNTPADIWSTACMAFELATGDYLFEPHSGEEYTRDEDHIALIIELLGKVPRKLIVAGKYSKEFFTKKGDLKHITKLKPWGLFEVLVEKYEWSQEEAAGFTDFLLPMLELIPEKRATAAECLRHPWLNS
UniProt P11309, sequence (whole entry, looked up): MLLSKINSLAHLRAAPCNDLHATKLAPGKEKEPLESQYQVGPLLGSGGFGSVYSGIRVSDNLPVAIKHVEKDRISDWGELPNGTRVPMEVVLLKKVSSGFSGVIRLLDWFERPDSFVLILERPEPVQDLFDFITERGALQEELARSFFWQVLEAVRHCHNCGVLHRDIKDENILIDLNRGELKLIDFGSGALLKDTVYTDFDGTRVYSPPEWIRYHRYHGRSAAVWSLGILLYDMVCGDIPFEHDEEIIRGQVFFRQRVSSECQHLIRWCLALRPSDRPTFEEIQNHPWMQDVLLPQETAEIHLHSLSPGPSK

Block 1 — method: RNA Bind-n-Seq; form: RNA; medium: in vitro; concentration: 1 µM; setting: whole 134-nt RNA, ends assumed; added: 150 mM KCl; reference: input library; direction: higher = stronger binding; quantity: log2 enrichment
Target: Ras GTPase-activating protein-binding protein 1, C-terminal RGG region (G3BP1, Homo sapiens, UniProt Q13283)
UniProt Q13283, sequence (whole entry, looked up): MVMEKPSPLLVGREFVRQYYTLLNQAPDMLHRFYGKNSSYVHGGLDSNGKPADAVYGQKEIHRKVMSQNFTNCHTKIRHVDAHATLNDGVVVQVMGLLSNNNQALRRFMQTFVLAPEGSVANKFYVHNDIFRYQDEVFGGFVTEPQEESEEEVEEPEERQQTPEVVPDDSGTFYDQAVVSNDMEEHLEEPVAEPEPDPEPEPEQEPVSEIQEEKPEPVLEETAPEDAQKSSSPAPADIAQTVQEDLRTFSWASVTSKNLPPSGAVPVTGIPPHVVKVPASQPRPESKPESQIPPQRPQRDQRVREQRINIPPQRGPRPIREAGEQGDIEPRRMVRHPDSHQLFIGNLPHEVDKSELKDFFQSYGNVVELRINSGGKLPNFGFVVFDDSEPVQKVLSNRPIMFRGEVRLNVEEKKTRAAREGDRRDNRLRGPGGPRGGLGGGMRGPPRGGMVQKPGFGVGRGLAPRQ
All sequences stand within: GGGAGUUCUACAGUCCGACGAUC … UGGAAUUCUCGGGUGUCAAGG
UGUGCUACACAUCGUAUGUACCGAAUCGGGGCCCCCCCGGGGCCCCCCCGGGCCCCCCCGGGAAAGUAUUAUGUUACGCCGUUCGGAUCU: -2.43
CCUGUGCUACACAUCGUAUGUACCGAAUCGGGGAAAGGGGAAAAAGGGGUUUUUUUGGGGAAAGUAUUAUGUUACGCCGUUCGGAUCUGC: 0.831
AGUCCUGUGCUACACAUCGUAUGUACCGAAUCGGGAAAGGGAAAAAGGGAAAAAGGGAAAGUAUUAUGUUACGCCGUUCGGAUCUGCACU: 0.297
AAGUCCUGUGCUACACAUCGUAUGUACCGAAUCGGGGAAAGGGAAAGGGAAAGGGGAAAGUAUUAUGUUACGCCGUUCGGAUCUGCACUU: 0.887
GUCCUGUGCUACACAUCGUAUGUACCGAAUCGGGGUUUUUGGGUUUUUGGGUUUUUGGAAAGUAUUAUGUUACGCCGUUCGGAUCUGCAC: -0.802
AAAAUAAGCCUAAGAAAGAAUUAAUUAAAGUUCUGAUUCAGAGGGGAUAUGAUUCGGAUCCUGUGAAGGCCUGGAAAGAAGCCCAGCAAA: -1.46
GUCCUGUGCUACACAUCGUAUGUACCGAAUCGGAAAAAGGAAAAAAAGGUUUUUUUGGAAAGUAUUAUGUUACGCCGUUCGGAUCUGCAC: -1.88
CAAGUCCUGUGCUACACAUCGUAUGUACCGAAUCGGUUUUUUUGGAAAGGAAAGGAAAGUAUUAUGUUACGCCGUUCGGAUCUGCACUUC: -1.84

Block 2 — method: competition with immobilised ligand; concentration: 0.1 µM; quantity: remaining binding
Compound: CC(C)CC(=O)N1CCc2nc(-c3ccc(Br)cc3)nc(N(C)Cc3ccccc3)c2C1
Tyrosine-protein kinase BTK (BTK, Homo sapiens, UniProt Q06187); cell-free assay: 100%
Proto-oncogene tyrosine-protein kinase ROS (ROS1, Homo sapiens, UniProt P08922); cell-free assay: 100%
Myosin-IIIa (MYO3A, Homo sapiens, UniProt Q8NEV4); binding: 96%
Dual specificity mitogen-activated protein kinase kinase 2 (MAP2K2, Homo sapiens, UniProt P36507); cell-free assay: 100%
Dual serine/threonine and tyrosine protein kinase (DSTYK, Homo sapiens, UniProt Q6XUX3); cell-free assay: 100%
BMP-2-inducible protein kinase (BMP2K, Homo sapiens, UniProt Q9NSY1); cell-free assay: 99%

Block 3 — method: RNA Bind-n-Seq; form: RNA; medium: in vitro; concentration: not given; reference: input RNA pool; direction: higher = stronger binding; quantity: bound/input enrichment
Target: RING finger protein unkempt homolog, zinc fingers 1-6, GST-SBP tag (UNK, Homo sapiens, UniProt Q9C0B0, residues 30-357)
UniProt Q9C0B0, sequence (30-357, looked up): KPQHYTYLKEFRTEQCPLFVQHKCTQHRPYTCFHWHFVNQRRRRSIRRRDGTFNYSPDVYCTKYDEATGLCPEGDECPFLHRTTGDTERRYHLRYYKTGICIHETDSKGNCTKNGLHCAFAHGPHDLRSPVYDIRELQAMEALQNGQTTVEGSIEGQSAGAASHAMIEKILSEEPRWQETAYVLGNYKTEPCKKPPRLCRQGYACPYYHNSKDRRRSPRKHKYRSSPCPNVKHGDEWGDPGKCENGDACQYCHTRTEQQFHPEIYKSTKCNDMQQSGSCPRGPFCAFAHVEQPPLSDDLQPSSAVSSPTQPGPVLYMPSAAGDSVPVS
Setting: RNA with constant flanks, human and mouse sites, ends assumed
All sequences stand within: GGGAGUUCUACAGUCCGACGAUC … CAACAGAGGAUUGAGCAUCA
UUCCCAAGACCUUUAUAGGUGAUUUUGUUUUCUGGGCUCCUUAACUUCAUAAAUAGCUAGUAUCUUCCAGCAGUAGUAACAGUCUGGAUAACUUCUUCCAUAUCCCUCCCUCUUUGUUUU: 4.72 ratio
UAAUGUUUGCACUCAUCUGACAGAAUCCCUGAGUUACAGUAUACAGCUAUGUGGUAAUAUUCAUUGCCAUUGAAAUUCUUACUUGGUAUGAAAUAUAAAGUGUUUCCUUAAAAUUACAUC: 0.101 ratio
AAGGAAGCACGCAAGCGCCGUGAAGAGCGCCUCCAGGCCAAGAAGGAGGAGAUCAUCAAGACUUUAUCCAAGGAGGAAGAGACCAAGAAAUAAAACCUCCCACUUUGUCUGUACAUACUG: 0.107 ratio
GAAAAUCAAGCAGCCGAAGAUGAACUAAGAAAAGAGAUAAGUAAAACGAUGUUUGCAGAAAUGGAAAUCAUUGGUCAGUUUAACCUGGGAUUUAUAAUAACCAAACUGAAUGAGGAUAUC: 0.344 ratio
GGGGAGGGGGACCCGGGGGGCGCAGGGGACUACGGGAACGGCCUGGAGUCUGAGGAGCUGGAGCCUGGGGAGCUGCUGCCGGAGCCCGAGCCCGAAGAGGAGCCGCCCCGGCCCCGCGCC: 1.26 ratio
AUAUUUGAGGGUGGGCCAAAUGUUAUCCUCACAGUUCUUGAAUACCUUCAGGAAAGCCCCCCUGUUCCAGUAGUUGUGUGUGAAGGAACAGGCAGAGCUGCAGAUCUGCUAGCGUAUAUU: 0.344 ratio
UUACAAAGCCAUCUUUACAUGCAUUAAACGAGGGCUACAACAAUAUUGUUUUACAAAUACUAGCACUUUUUUUUCUGUUAUGUACUUAGUGUUAGAGGGUCAAAAUAAUCUUUCUGCUUA: 0.949 ratio
GGCCCGGCUGCGGCUGGAGGCCACGCGCCUCAGAGUUUGCUAUUGCGAAUACUGACCCCUAGCUUUGAAGGUAUUAGCGGAUUGUUACUGAAACAGCAUAUAGUUCCAAAUGCAGUCAGA: 0.186 ratio

Block 4 — SMILES: O=c1cc(N2CCOCC2)oc2c1ccc1ccccc12; read-out: enzyme activity; action: inhibitor; concentration: 0.5 µM; reference: control; quantity: remaining activity
Tyrosine-protein kinase receptor TYRO3 (TYRO3, Homo sapiens, UniProt Q06418): 97.3%
Protein kinase C theta type (PRKCQ, Homo sapiens, UniProt Q04759): 90.6%
Casein kinase I isoform delta (CSNK1D, Homo sapiens, UniProt P48730): 97.9%
Ephrin type-A receptor 2 (EPHA2, Homo sapiens, UniProt P29317): 110%
Serine/threonine-protein kinase PAK 5 (PAK5, Homo sapiens, UniProt Q9P286): 108%
Muscle, skeletal receptor tyrosine-protein kinase (MUSK, Homo sapiens, UniProt O15146): 75.6%
Ribosomal protein S6 kinase beta-2 (RPS6KB2, Homo sapiens, UniProt Q9UBS0): 99.6%
Casein kinase I isoform epsilon (CSNK1E, Homo sapiens, UniProt P49674): 92.5%
Cyclin-dependent kinase 2, with cyclin E (CDK2, Homo sapiens, UniProt P24941): 119%
Calcium/calmodulin-dependent protein kinase kinase 1 (CAMKK1, Homo sapiens, UniProt Q8N5S9): 112%
Serine/threonine-protein kinase pim-1 (PIM1, Homo sapiens, UniProt P11309): 54.8%
Serine/threonine-protein kinase PAK 6 (PAK6, Homo sapiens, UniProt Q9NQU5): 92%
Calcium/calmodulin-dependent protein kinase type 1 (CAMK1, Homo sapiens, UniProt Q14012): 111%
Ephrin type-B receptor 3 (EPHB3, Homo sapiens, UniProt P54753): 90%
Dual specificity protein kinase CLK2 (CLK2, Homo sapiens, UniProt P49760): 101%
Serine/threonine-protein kinase PAK 1 (PAK1, Homo sapiens, UniProt Q13153): 93.5%
Activin receptor type-1-like (ACVRL1, Homo sapiens, UniProt P37023): 100%
SRSF protein kinase 1 (SRPK1, Homo sapiens, UniProt Q96SB4): 90.9%

Single results of other studies
CCOC(=O)[C@@H]1CSCC(=O)N[C@@H](CC)C(=O)N(C)[C@@H](C)C(=O)N[C@H](CC(C)C)C(=O)N2CCC[C@H]2C(=O)N(CC(C)C)CC(=O)N[C@H](CC(C)C)C(=O)N(C)[C@@H](C)C(=O)N[C@@H](CC(C)C)C(=O)N1C — logD (hydrocarbon/water): 2.38
SNRNP70 (Homo sapiens, UniProt P08621) — cross-linked residues (ACOT9 (Homo sapiens, UniProt Q9Y305); cross-linking MS; cell fractions; added: DMTMM): E122 to K156

Some of these lines once more (block 4):
Serine/threonine-protein kinase PAK 5 (PAK5, Homo sapiens, UniProt Q9P286): 108%
Muscle, skeletal receptor tyrosine-protein kinase (MUSK, Homo sapiens, UniProt O15146): 75.6%
Ribosomal protein S6 kinase beta-2 (RPS6KB2, Homo sapiens, UniProt Q9UBS0): 99.6%
Casein kinase I isoform epsilon (CSNK1E, Homo sapiens, UniProt P49674): 92.5%
